Experimental data collected from several papers.
Several values in a cell are separate wells, animals, samples, runs or records.
Target: Protein kinase C zeta type (PRKCZ, Homo sapiens, UniProt Q05513)

Nc1nc(Nc2ccccc2)sc1C(=O)c1ccccc1 — remaining activity (enzyme activity, inhibitor; 10 µM): 33%
CN1CCN(Cc2ccc(-c3ccc(CO[C@H]4CCC[C@@H]4NC(=O)c4cc(-c5cnn(C)c5)cnc4N)cc3)cc2)CC1 — inhibition (enzyme activity, inhibitor; 0.1 µM): 6%
NC(=O)[C@@H](O)C[C@H]1CCc2sc3ncnc(O[C@H]4CC[C@H](N5CCOCC5)CC4)c3c21 — inhibition (enzyme activity, inhibitor; 10 µM): -2%
CN1CC[C@@H](COc2cnc(C#N)cc2-c2ccn3nc(NC(=O)C4CC4)cc3c2)C1 — inhibition (enzyme activity, inhibitor; 1 µM): 1%
O=C=[N][Ru-4]123([n]4c5ccc(O)cc5c5c6c(c7cc(F)c[n+]1c7c54)C(=O)NC6=O)[S+]1CC[S+]2CC[S+]3CC1 (stereo not shown) — remaining activity (enzyme activity; 100 nM, human enzyme, together with: 10 µM ATP; reference: untreated): 96%
Cc1cccc(-c2ccc3nc(NC(=O)C4CCCO4)nn3c2)c1 (stereo not shown) — remaining activity (enzyme activity, Dundee kinase panel; 10 µM): 88%
CCn1cc(C(=O)O)c(=O)c2c(N)c(F)c(NC3CCCCC3)cc21 — inhibition (kinase activity; 0.1 µM, together with: ATP at Km): 1.5%
O=c1c(-c2ccc(Cl)c(CN3CCOCC3)c2)coc2cc(O)ccc12 — remaining activity (enzyme activity, inhibitor; 1 µM): 107%
NC(=O)C[C@H]1CCc2sc3ncnc(O[C@H]4CC[C@H](N5CCOCC5)CC4)c3c21 — inhibition (enzyme activity, inhibitor; 10 µM): -1%
Cc1nc2c(F)cc(-c3nc(Nc4ccc(CNC(=O)CCCCCCC(=O)NO)cc4)ncc3F)cc2n1C(C)C — inhibition (enzyme activity, inhibitor; 1 µM): 13%
COCC12C(=O)NC3C4(C(OC)CC1O)C1CC5(O)C(OC)C(O)C(OC(C)=O)(C1C5OC(=O)c1ccccc1)C3(O)C(OC)C24 (stereo not shown) — remaining activity (kinase activity, inhibitor, ProQinase kinase profiling; 25 µM; reference: control): 81% and 83%
C=CC(=O)Nc1cccc(-c2cnc3[nH]cc(C(=O)NC(C)(C)C)c3n2)c1 — inhibition (kinase activity; 0.1 µM): -7% and -11%
COc1ccc(NC(=O)Nc2ccc3c(c2)C(=O)N(C(C)CO)CC(C)C(CN(C)Cc2ccc4c(c2)OCO4)O3)cc1 (stereo not shown) — remaining activity (kinase activity, KinaseProfiler; 0.03 µM, species human; reference: control): 96%
Cc1cccc(-c2ccc3nc(NC(=O)C4CCOCC4)nn3c2)c1 — remaining activity (enzyme activity, Dundee kinase panel; 10 µM): 87%
Cc1cccc(O[C@H]2CCC[C@@H](C(C)CNCc3ccncc3)C2)c1 (relative stereo) — inhibition (enzyme activity; 10 µM): -16%
CNC(=O)C[C@H](Cc1ccc(C#N)cc1)NC(=O)c1cc(-c2ccc(CN[C@H](C)c3ccc(C)cc3)o2)ccc1Cl — activity vs control (enzyme activity, inhibitor; 1 µM): 94%
Nc1ncc(-c2cc(-c3cnn(CC(F)(F)F)c3)ncc2F)nc1C(=O)NC1CNCC(F)C1 (stereo not shown) — remaining activity (enzyme activity; 1 µM; reference: DMSO control): 96.2%
O=C(Cc1ccc(OCc2ccccc2)cc1)NC1(C(=O)O)CCN(C(=O)c2ccc(-c3cccc(Cl)c3)cc2)CC1 — activity vs control (enzyme activity, inhibitor; 10 µM): 101%
C=CC(=O)N1Cc2nc(-c3cc(-c4cc(Cl)cnc4Cl)c(F)cc3F)n(-c3ccncn3)c2C1 — inhibition (cell-free assay; 1 µM): 6.2%

Excerpt of the above:
CN1CC[C@@H](COc2cnc(C#N)cc2-c2ccn3nc(NC(=O)C4CC4)cc3c2)C1 — inhibition (enzyme activity, inhibitor; 1 µM): 1%
Nc1nc(Nc2ccccc2)sc1C(=O)c1ccccc1 — remaining activity (enzyme activity, inhibitor; 10 µM): 33%
